Published values gathered from unrelated publications.
Each line is one published result; not all experiments were run side by side. ± marks the error that the study gave.

SMILES | cell line | assay | setting | IC50
C#CCN(C(=O)OCc1ccc(B2OC(C)(C)C(C)(C)O2)cc1)[c-]1cccc1.[Fe+2].c1cc[cH-]c1 | BL2 | cell growth or viability, MTT | 48 h | 20.1 µM
CSc1nc(Nc2ccc(C(=O)N/N=C/c3c(Cl)cccc3Cl)cc2)c(C#N)c(-c2ccccc2)n1 | HCT-116 and MCF7 | cell growth, MTT | range over compound group | 1.14 to 10.3 µM
O=C1CC[C@H](N2Cc3cc(-c4cnn5ccc(NCCc6ccccc6)nc45)ccc3C2=O)C(=O)N1 | MOLM-13 | cell growth, CellTiter luminescence | 72 h | > 0.1 µM
CC(C)(CCCC/C=C/CCCCCC(C)(C)C(=O)O)C(=O)O | mouse primary hepatocytes | fatty acid synthesis, inhibitor | 4 h, added: [1,2-14C]acetate incorporation | 0.76 ± 0.2 µM
Cc1nn(-c2ccc(S(=O)(=O)N[C@H](CO)CC(C)C)cc2)c2nn3nnnc3nc12 | human Lymphocyte | cell growth or viability, MTT | 72 h | 1.11 µM
COc1cc(OC)cc(C2=C3C(C)=C(I)C(/C=C/c4c[nH]c5ccc([N+](=O)[O-])cc45)=[N+]3[B-](F)(F)n3c(/C=C/c4c[nH]c5ccc([N+](=O)[O-])cc45)c(I)c(C)c32)c1 | HEp-2 | cell growth or viability, resazurin | 24 h, dark | > 400 µM
Cc1cc(C#N)cc(C)c1Oc1cc(Nc2ccc(C#N)cn2)nc2ccncc12 | S102 |  | 48 h | > 127 µM
COc1cc(OC)c(-c2coc3c(CC=C(C)C)c(OC)cc(O)c3c2=O)cc1OC | KKU100 | cell growth or viability, MTT | 24 h | > 100 µM
C=C(C)[C@@H](O)[C@H](O)C[C@H](C)[C@@H]1CC[C@]23C[C@]12CC[C@@H]1[C@@]2(C)CC[C@@H](O)C(C)(C)[C@@H]2C[C@@H](OC(C)=O)[C@]13C | SCM-1 | cytotoxicity, MTT |  | > 10 µM
COC(=O)[C@H]1[C@H]2C[C@H]3O[C@@]4(CCN3C[C@H]2C[C@@H](OC(=O)c2cc(OC)c(OC)c(OC)c2)[C@@H]1OC)C(=O)Nc1cc(OC)c(-c2ccc(C)cc2)cc14 | NALM-6 | cell growth or viability, trypan blue | 72 h | 2.38 µM
CC1=C2[O][Ru-]([Cl])[O+]=C2C=CN1CCCN1C=CC2=[O+][Ru-]([Cl])[O]C2=C1C.Cc1ccc(C(C)C)cc1.Cc1ccc(C(C)C)cc1 | A-427 | cell growth or viability, crystal violet | 96 h | 5.2 µM
[Ru+2].c1ccc(-c2cccc(-c3ccccn3)n2)nc1.c1ccc2nc(-c3nc4ccccc4s3)ccc2c1.c1cnccn1 | HL-60 | cell viability | added: light 22 J/cm^2 | 27.6 ± 3.4 µM
NCCNC(=O)c1ccc2[nH]c(/C(=N/Nc3ccc(F)cc3)c3ccc(O)cc3)nc2c1 | SNU-1 (KRAS G12D) | cell viability, CellTiter-Glo | 72 h | 75.7 ± 3.4 µM
COC(=O)[C@@H](Cc1cn(Cc2ccc(Cl)cc2)nn1)NC(=O)OCC1c2ccccc2-c2ccccc21 | ASPC1 | cell growth or viability, MTS | 72 h | > 100 µM
O=C1CC[C@H](N2Cc3cc(-c4cnn5ccc(Cl)nc45)ccc3C2=O)C(=O)N1 | MOLM-13 | cell growth, CellTiter luminescence | 72 h | > 0.1 µM
CC(C)c1cccc(C(C)C)c1N1CCN(c2c(C(C)C)cccc2C(C)C)C1=[Se].[Cl][Ag] | H157 lung carcinoma cells | cell viability, MTT | 72 h | 1.4 ± 0.4 µM
O=[N+]([O-])c1ccc(NC2=N[N+](=Cc3cccs3)[Pt-]([Cl])([Cl])[S]2)cc1 | HEL human lung fibroblasts | cell proliferation |  | 34 µM
CC1CCC(NC(=O)N(C)c2cnc3ccc(-c4ccc(OCCCCCC(=O)NO)nc4)cc3n2)CC1 (stereo not shown) | Hs 1.Tes normal testicular | cell growth, MTT | 48 h | > 10 µM
NCCNC(=O)c1ccc2[nH]c(C(=O)c3ccc(O)cc3)nc2c1 | SNU-1 (KRAS G12D) | cell viability, CellTiter-Glo | 72 h | > 300 µM
C[C@@H](C[C@@H](O)[C@H](O)C(C)(C)O)[C@@H]1CC[C@]2(C)C3=CC[C@H]4C(C)(C)C(=O)CC[C@]4(C)[C@H]3CC[C@@]12C | HEp-2 | cell growth or viability, MTT | 48 h | 8.4 µM
CCCCCOc1ccc(-c2cn(-c3ccc(-c4cc(-c5ccccn5)nc(-c5ccccn5)c4)cc3)nn2)cc1 | NHDF normal human fibroblasts | cytotoxicity, MTS | 72 h | > 25 µM
Cc1cc(C#N)cc(C)c1Oc1cc(Nc2ccc(C#N)cn2)nc2cnccc12 | S102 |  | 48 h | > 127 µM
N=C(N/N=C/c1ccccc1)N/N=C/c1ccccc1 | hTERT-HPNE | cell growth, crystal violet | 72 h | 62.9 ± 7.5 µM
Cl.[Cl][Ru-4]123([n+]4ccccc4-c4cccc([n+]41)-c1cccc[n+]12)[n+]1ccc(-c2ccccc2)c2ccc4c(-c5ccccc5)cc[n+]3c4c21 | HEL 299 | cell growth or viability, resazurin | 72 h | 28.2 µM
COc1ccc(-c2cc(=O)c3c(O)cc(O[C@@H]4O[C@H](CO)[C@@H](O)[C@H](O)[C@H]4O)cc3o2)cc1OC | MDA-MB-231/BCRP BCRP-transfected, multidrug-resistant | cytotoxicity, resazurin reduction | 72 h | > 100 µM
COc1ccccc1/C=C1\SC(=O)N(CC(=O)Nc2ccc(C(=O)Nc3ccc([N+](=O)[O-])cc3)cc2)C1=O | HT-29, A549, HCT-116 | cell growth, MTT | range over cell lines | 9.17 to 47.2 µM
CC(C)=CCc1c(O)cc2oc3cc(O)c(O)c(CC=C(C)C)c3c(=O)c2c1O | BEAS-2B | cell growth or viability |  | 7.43 µM
COc1ccc([C@@H]2CC(=O)c3c(O)cc(O[C@@H]4O[C@H](CO[C@@H]5O[C@@H](C)[C@H](O)[C@@H](O)[C@H]5O)[C@@H](O)[C@H](O)[C@H]4O)cc3O2)cc1O | MRC5 | cell growth or viability, MTS | 72 h | 138 µg/mL

SMILES | cell line | assay | setting | IC50
[CH3][Pd-2]([Cl])([N+](=Cc1ccc[nH]1)Cc1ccccc1)[N+](=Cc1ccc[nH]1)Cc1ccccc1 | MCF-12A | cell growth or viability, MTT | 24 h | 22.9 µg/mL
CCOC(=O)c1[nH]c(C)c(/C=C/C2=[N+]3C(=C(c4cc(OC)cc(OC)c4)c4c(C)c(I)c(/C=C/c5c(C)[nH]c(C(=O)OCC)c5C)n4[B-]3(F)F)C(C)=C2I)c1C | HEp-2 | phototoxicity, CellTiter-Blue | added: light 1.5 J/cm^2 | > 100 µM
[Cl][Pt-]1([Cl])[S]C(Nc2ccccc2)=N[N+]1=Cc1cccs1 | HEL human lung fibroblasts | cell proliferation |  | 6 µM
CN1CCC(N[C@@H]2CCc3[nH]c4c(C(N)=O)ccc(-c5ccccc5Cl)c4c3C2)CC1 | colorectal cancer organoid sample A | cell growth, CellTiter-Glo | 6 days | 0.0031 µM
CC/C(=C(\c1ccccc1)c1ccc(OCCN(C)CCCCCCC(=O)NCCc2c[nH]c3ccc(OC)cc23)cc1)c1ccccc1 | HT-1080 | cell survival, MTT | day 9, dosed days 2, 4, 7 | 5.7 µM
CCC(C)C1OC(=O)C(C)(C)C(=O)C(Cc2ccccc2)OC(=O)C(C(C)C)OC(=O)C(NC(=O)c2cccc(O)c2)C(C)OC1=O (stereo not shown) | HCT-8 | cell growth or viability, CCK-8 | 72 h | > 20 µM
C=C(C)[C@H]1CC[C@@]2(C)CC[C@]3(C)C[C@H]4[C@@H](C)[C@H](O)C[C@H]4/C(C)=C\C[C@H]3[C@H]12 | CT26 | cell growth or viability, MTT | 72 h | 3.1 µM
C=C(C)[C@@H]1CC[C@]2(COC(=O)CCC(=O)O)CC[C@]3(C)[C@H](CC[C@@H]4[C@@]5(C)CC[C@H](OC(=O)CCC(=O)O)C(C)(C)[C@@H]5CC[C@]43C)[C@@H]12 | HDF | cell growth or viability, SRB | 72 h | 14.8 µg/mL
COc1cc(OC)cc(C2=C3C(C)=C(I)C(C)=[N+]3[B-](F)(F)n3c(/C=C/c4cccs4)c(I)c(C)c32)c1 | HEp-2 | cell growth or viability, resazurin | 24 h, dark | > 400 µM
COC(=O)CNc1cc(C[S+]([O-])c2ccc3ccccc3c2)ccc1OC (stereo not shown) | SCC-15 | cell growth or viability, MTS | 48 h | 0.786 µM
N#Cc1cnn2ccc(-c3ccc4c(c3)CN([C@H]3CCC(=O)NC3=O)C4=O)nc12 | MOLM-13 | cell growth, CellTiter luminescence | 72 h | > 0.1 µM
C=C(C)C(=O)Nc1ccc(-c2c(C#Cc3cc(OC)cc(OC)c3)c3c(N)ncnc3n2C)cc1 | JMSU-1 | cell growth or viability, ATP luminescence | 96 h | 0.45 µM
N#C/C(=C\c1cn(-c2ccccc2)nc1-c1ccc([N+](=O)[O-])cc1)c1nc2ccccc2[nH]1 | ASPC1 | cell growth or viability, ATP luminescence | 72 h | > 100 µM
CC(C)NC(=O)[C@H](CCc1ccccc1)NC(=O)[C@H](CC(=O)NCC(C)(C)C)NC(=O)CCc1ccccc1 | Karpas-1106P | proteasome β5 activity, inhibitor, Proteasome-Glo β5 | 1 h | 0.85 ± 0.24 µM
O=C(/C=C/c1cccc(S(=O)(=O)Nc2cccc(F)c2)c1)NO | MOPC-315 | cell growth | 24 h | 0.365 ± 0.019 µM
CC(C)=CCC1=C([O-])C(=O)c2ccccc2C1=O.CC(C)=CCC1=C([O-])C(=O)c2ccccc2C1=O.[Cu+2].c1ccc(-c2ccccn2)nc1 | A2780R cisplatin-resistant | cell viability, MTT | 24 h | 22 ± 2.8 µM
CCOc1cncc(-c2ccc(NC(=O)C3(c4ccnc(NS(=O)(=O)C5CC5)n4)CCOCC3)nc2)n1 | sensitive neoplastic B-cell lines | cell proliferation | 72 h, range over lines | 0.003 to 0.356 µM
Cc1ccc(C(C)C)cc1.Cc1ncc(CO)c(C=NNC2=Nc3ccccc3-c3[nH]c4ccc(Br)cc4c3C2)c1O.[Cl-].[Cl][Ru+] | NCI-N87 | cytotoxicity, MTT | 96 h | 2.5 ± 0.7 µM
Cc1cc(CN2CCC(CCCCCCC(=O)NO)CC2)cc(C)c1-c1ncn(C)c1-c1ccc(C#N)c2ccccc12 | Bel-7405 | cell growth, MTT | 72 h | 0.15 µM
O=C1NCC(Cc2ccccc2)N(CC2CCCN2CC(CC2CCCCC2)N2CC(Cc3ccc(O)cc3)N(CCc3ccccc3)C(=O)C2=O)C1=O (stereo not shown) | MEF | cell growth or viability, ATP luminescence | 72 h | > 100 µM
O=[N+]([O-])c1ccc(NC2=N[N+](=Cc3cccs3)[Pd-]([Cl])([Cl])[S]2)cc1 | HEL human lung fibroblasts | cell proliferation |  | 51.7 µM
O=C(CCCN1C(=O)c2cccc3cccc(c23)C1=O)NO | HCT-8 | cytotoxicity | 48 h | 87.1 ± 2.5 µM
Nc1nc2cnc(C(=O)N3CCOC[C@@H]3c3ccc(C(F)(F)F)cc3)cc2c2c1COC2 | HCT-116 MTAP-deleted |  | 144 h | 0.107 µM
CCCCCCCCCCCCN(CCCCCCCCCCCC)C1=[S+][Au-2]2([S]1)[c]1ccccc1-c1cccc[n+]12.F[P-](F)(F)(F)(F)F (stereo not shown) | UWB1289 | cell growth or viability, MTT | 72 h | 22.9 µM
COc1ccc(NC(=O)N/N=C2\CC3(CCN(C)CC3)Oc3ccccc32)cc1 | MCF7, HCT-116, PC-3, A549 | cell growth, MTT | range over cell lines | 1.15 to 9.09 µM
N=C(N/N=C/c1cc(C(F)(F)F)cc(C(F)(F)F)c1)N/N=C/c1cc(C(F)(F)F)cc(C(F)(F)F)c1 | hTERT-HPNE | cell growth, crystal violet | 72 h | 375 ± 30 µM
C=CC(=O)Nc1cc(Nc2nccc(-c3c(-c4ccc5ccccc5c4)n(C)c4ccccc34)n2)c(OC)cc1N(C)CCN(C)C | NCI-H1975 | cell growth or viability, MTT | 72 h | 0.266 µM
